Measurements collected from several papers.
“And” joins repeats or separate records; there may be more than shown. ± gives the spread as reported.

Sequences of proteins named here, by UniProt entry; tags and fusion partners are left off. Residues count along the entry.
UniProt P45983, 1-384 isoform 3: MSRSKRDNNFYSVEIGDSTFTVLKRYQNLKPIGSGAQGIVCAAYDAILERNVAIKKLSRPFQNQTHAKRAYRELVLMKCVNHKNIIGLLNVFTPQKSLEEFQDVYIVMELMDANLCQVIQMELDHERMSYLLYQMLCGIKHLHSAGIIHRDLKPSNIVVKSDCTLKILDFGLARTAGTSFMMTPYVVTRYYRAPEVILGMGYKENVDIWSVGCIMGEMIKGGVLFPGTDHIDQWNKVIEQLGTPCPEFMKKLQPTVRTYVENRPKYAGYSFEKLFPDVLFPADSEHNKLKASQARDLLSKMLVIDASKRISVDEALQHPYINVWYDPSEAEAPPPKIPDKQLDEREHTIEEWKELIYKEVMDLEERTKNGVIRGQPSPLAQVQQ

SMILES	target or system	test	system	setting	scale	measurement	value
COc1cc([C@@H]2c3cc4c(cc3C=C(C=O)[C@H]2C(=O)OCCCBr)OCO4)cc(OC)c1OC	Leishmania infantum		promastigote, iRFP			EC50	35.2 ± 7.5 µM
CCOc1ccccc1Nc1nnc(SCC(=O)Nc2cc(F)ccc2F)s1	PBMC-airway epithelium co-culture			10 µM, 48 h, with: anti-CD3/CD28		TNF-α secretion	211 ± 9 pg/mL
CCC1NC(=O)C(CCCNC(=N)N)NC(=O)C(C)(NC(=O)C(C)C)CCCCNC(=O)C(c2ccccc2)NC1=O (centres unmarked)		flow cytometry	MLL-AF9 leukaemia cells, mouse			c-Kit expression	decreased
C=CC(=O)N1CCC(c2cc(Nc3cc4n(n3)CCOC4)c3ncnn3c2)C1 (single isomer, unassigned)	TMD8 wild type	calcium flux, FLIPR		4 h preincubation, with: anti-IgM		maximum inhibition	23.5%
Cc1nc(-c2cccc(CO)c2)sc1COc1ccc(CCC(=O)O)cc1	HEK293T			18 h		CC50	not toxic
Nc1ncc(-c2ccc3ncnc(N4CCc5cc(F)c(Cl)cc54)c3c2)cn1			CD1 mouse, brain	intraperitoneal, 50 mg/kg		AUC(0-t)	117 µg·h/mL
C/C=C/Cn1c(Cc2cc(OC)c(OC)c(OC)c2)nc2c(N)ncnc21	Hsp90α and Hsp90β	binding, fluorescence polarization competition		with: Cy3B-geldanamycin tracer	relative to: Ki Hsp90β over Ki Hsp90α	selectivity ratio	11.3 fold and ~11 fold
COc1cc([C@@H]2c3cc4c(cc3[C@@H](C=C(C)C)[C@H]3COC(=O)[C@H]23)OCO4)cc(OC)c1OC	Leishmania infantum	iRFP fluorescence	mouse splenocytes infected, amastigote, iRFP, ex vivo splenic explant	48 h		EC50	9.3 ± 0.4 µM
CC(=NN=c1[nH]c2cc(F)c(F)cc2n1C)c1ccc(F)cn1			MDA-MB-231 xenograft, SCID mice	i.p., 10 mg/kg/day, end of treatment	relative to: vehicle	tumour volume reduction	> 60%
COC(=O)[C@@H]1C(c2nc3cc(C)ccc3o2)=Cc2cc3c(cc2[C@H]1c1cc(OC)c(OC)c(OC)c1)OCO3	Leishmania infantum		promastigote, iRFP			EC50	16.3 ± 1.9 µM
CCOC(=O)C1=C(C)NC2=C(C(=O)CC(C)(C)C2)C1c1ccc(OCC(=O)NN=Cc2cccc(C=O)c2)cc1OCC(=O)NN=Cc1cccc(C=O)c1 (centres unmarked)	Brevibacillus brevis			concentration not given, 24 h		inhibition zone diameter	8.1 ± 0.01 mm
Cc1ncsc1-c1ccc([C@H](C)NC(=O)[C@@H]2C[C@@H](O)CN2C(=O)[C@@H](NC(=O)CCCCCCC(=O)N2CCN(C[C@]3(C)CCC(c4ccc(Cl)cc4)=C(CN4CCN(c5ccc(C(=O)NS(=O)(=O)c6ccc(N[C@H](CCN7CCOCC7)CSc7ccccc7)c(S(=O)(=O)C(F)(F)F)c6)cc5)CC4)C3)CC2)C(C)(C)C)cc1			STAM mice NASH-HCC model, liver	intraperitoneal, 5 mg/kg twice weekly, day 90, from day 45		SA-β-gal staining	decreased
Cc1cc(SCc2sc(-c3ccccc3C)nc2C)ccc1OCC(=O)O	HEK293T			18 h		CC50	> 100 µM
COC(=O)[C@@]1(C)C=C(C(=O)Nc2cccc(C(=O)NC34CC(Nc5nccc(-c6cccnc6)n5)(C3)C4)c2)C(=O)CC1	Mitogen-activated protein kinase 8 (MAPK8, Homo sapiens, UniProt P45983)	kinase activity, inhibitor		2.788e-05 µM, with: 10 mM GSH		remaining activity	1.02 fraction of control

Repeated from above:
SMILES	target or system	test	system	setting	scale	measurement	value
CCOc1ccccc1Nc1nnc(SCC(=O)Nc2cc(F)ccc2F)s1	PBMC-airway epithelium co-culture			10 µM, 48 h, with: anti-CD3/CD28		TNF-α secretion	211 ± 9 pg/mL
CCC1NC(=O)C(CCCNC(=N)N)NC(=O)C(C)(NC(=O)C(C)C)CCCCNC(=O)C(c2ccccc2)NC1=O (centres unmarked)		flow cytometry	MLL-AF9 leukaemia cells, mouse			c-Kit expression	decreased
